Published values from different studies.
Each numbered part is a random draw from the data of one study; scales do not carry over between parts.

Block 1 — method: RNA Bind-n-Seq; form: RNA; sample: in vitro; tested at: 365 nM; baseline: no-protein control; direction: higher = stronger binding
Target: RNA binding protein fox-1 homolog 2, RRM domain, GST-SBP tag (RBFOX2, Homo sapiens, UniProt O43251-10, residues 100-194)
Notes: natural RNA segment, single round, ends assumed
Constant ends, left off below: GGGAGUUCUACAGUCCGACGAUC … UGGAAUUCUCGGGUGCCAA
Construct (chain): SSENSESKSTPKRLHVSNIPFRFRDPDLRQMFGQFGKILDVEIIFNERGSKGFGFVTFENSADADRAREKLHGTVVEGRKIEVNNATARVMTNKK
| Oligonucleotide | RBNS enrichment (R) |
| --- | --- |
| AGACAUUUUUAUUUAGUUGAAAAAUCUAGUUUUUUUUGUAAACUGUAUCAAAUCUGUAUAUGUUGUAAUAAAACUUAUGCUAGUUUAUUGGAAGUGUUCAAGAAAUAAAA | 0.853 |
| AAGCAUCUGAAGACUGGGUUUUUUUGUUGUUGUUGUUCCCCUUACAGACAAAAUGAAGACUAUCAUGUGCAAUCUUUUACAGUGGGGUUGAUGAUACAUUUGGAAGGAUU | 0.521 |
| ACCUGAGGUCAAGAGUUCGAGACCAGCCUGACCAACUUGGAGAAAUGCCAUCUCAACUGAAAAUACAAAAUUAGCUGGGUGUGGUGGUGCAUGCCUGUAAUCCCAGGUAC | 1.93 |
| GGGUGCCGUGCACAGAGCUCCAUGACCAGCUUGGGAAGUUAGAAGGAAGGGGAGGCAGGAGGCUGCUUAGUCUGCUGCCAUGAUGGGCCCCAUGAAUGGUGGCUCUCAAG | 1.09 |
| AAUCAUGCCAGCUAAUCCUGUCCGUCACUGCCUGUCAGGUUGUUCCUAUAUACCUUCUGUAAAUAACUUUUUUUGAGAAGGAAAUAAAAUCAGCUGGAACUGAACCCUAA | 0.339 |
| CAGAUAUUCUUUCGGGUUUUGUACCUCAAGGUUCCCCUCCCCACAUUGUAAAUACACUUUAAGUGAAUACAGUUUUAGAGAACAAAAGAAAAAAAAAGAAUAAAUAAAGG | 0.638 |
| UUUCAUGUCCUAUAUUAAAGUACAAAUAGGCUUAAAUUACUGGAUAUUUAAUGUAGUUUCCCAUCCCUAGUCUUCUAUGUCUGUGAUGUUAAUUUCUUUUGUUGCAUAAC | 0.402 |
| AGGAAACUCCGCUGCCGACCCUGCCUGAGCGCGGGAGCCUGAGGACCGGGUGGAGGCGGUGGGGACCCAGCCGCGCGCCGGGAGCGCUCCCCGGAAUGAGCCGCCCCACC | 21.2 |
| CCUUCCUGUACAUUUUCCUCCACUUUUUUUCAUUACUCAACUUGUUCCCCAAGAAGGUAGUGUACUAGGAUCCUAUUAGUCUGCUUUUCAUAUACUGUACAUCAAGUAUA | 0.649 |
| GAUCACCCGCCAGAGGCGGGGCACGAGGCACACUGUGUUAUACUGCAUGAGCCAUGAAUUGGGCUAGAGGAAGCCUUGUCAUCAGAUACUGACCAUAGCAUGUGACACUC | 4.85 |
| CCUUUCUGUUUGGCCUGAUUAACAUUUAAAUUCUUGCCAAAAUUAAGGUAACUUUUAAAAAACACCUUUUAUAGGUGGAUCCAGCAGUCUGGCAACGCCCACAGUUACCA | 0.322 |
| AUGUCUUAAUUCUUUGCCUGUGGGUAAGUGAGAGAAUGGCUGCCAGUAGUUGUUGGAGACCUGGUAGUGGGAAGGAUGUUAUGGGUCACUGGAAAGUGGCCAGUCUUCAC | 2.8 |

Block 2 — organism: Saccharomyces cerevisiae; read-out: binding; method: competitive growth deep sequencing; form: peptide; strain: cyclin D3-Cln2 fusion strain; tested at: concentration not given; notes: peptide tiling library; direction: direction not given
| Molecule | growth enrichment score |
| --- | --- |
| KRRLDLETDHQY | -0.843 |
| GFGFLLFICKLTF | -0.74 |
| TTTTSPRTPPPLTVQD | 0.666 |
| KVKRRLDLDIDGLQKE | 0.813 |
| SMTDFYHSKRRLIFSK | -1.34 |
| RVSGLLSWTLSRVLWL | -0.143 |
| LKGRRLVFDN | 0.624 |
| RRRIKLPESDSSED | 0.353 |
| NSMKELNFSHLPSNSV | -0.146 |
| KRNLLNEFDRII | -0.227 |
| NEGVSNAVRRSLYIRD | -1.18 |
| RQVRRDLFAF | -0.739 |
| SPPRGRRLFPPGPAGF | -0.688 |

Block 3 — method: protein-binding microarray; form: double-stranded DNA, one strand shown; sample: in vitro; tested at: 2200 nM top; notes: 60-bp whole probe; with: salmon DNA 0.4 mg/ml; baseline: random background probes; direction: higher = stronger binding; constant ends, left off below: GCCTAGCAC … GTCTTGATTCGCTTGACGCTGCTG
Target: Interferon regulatory factor 7, full length, phosphomimetic (IRF7, Homo sapiens, UniProt Q92985, residues 1-503, S471D/S472D/S475D/S476D/S477D/S483D/S484D/S487D)
UniProt Q92985, sequence (whole entry, unmodified, looked up): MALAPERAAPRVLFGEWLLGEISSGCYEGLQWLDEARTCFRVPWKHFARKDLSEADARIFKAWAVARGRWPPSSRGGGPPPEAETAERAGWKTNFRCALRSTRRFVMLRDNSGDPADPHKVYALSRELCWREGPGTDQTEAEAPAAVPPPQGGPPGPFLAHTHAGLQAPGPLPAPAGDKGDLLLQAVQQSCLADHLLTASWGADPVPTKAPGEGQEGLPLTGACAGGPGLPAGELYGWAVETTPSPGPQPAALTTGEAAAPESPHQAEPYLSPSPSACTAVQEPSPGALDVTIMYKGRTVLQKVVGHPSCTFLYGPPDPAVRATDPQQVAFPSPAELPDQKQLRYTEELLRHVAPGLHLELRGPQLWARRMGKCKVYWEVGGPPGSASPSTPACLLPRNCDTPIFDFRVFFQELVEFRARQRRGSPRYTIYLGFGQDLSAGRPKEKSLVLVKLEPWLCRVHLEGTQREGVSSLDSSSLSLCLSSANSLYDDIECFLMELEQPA
| Oligonucleotide | fitted relative affinity |
| --- | --- |
| GATGGTATCCTTATCCTGACGTGCTAG | 0.878 z-score |
| GACGGACTGCTGATCCTGACGTGCTAG | 0.17 z-score |
| TCATAAGTTTCACTCTGCACTGTGCTA | 3.6 z-score |
| TTAGGTATCCTTCTGCTTTAGTGCTAG | 0.988 z-score |
| TTATATACCTGTATATCTTCGTGCTAG | 1.02 z-score |
| TTAGATATCAGTCCCGATTAGTGCTAG | 0.675 z-score |
| GACGGTCTCCTACTGATGACGTGCTAG | 0.261 z-score |
| GACGGACTGGACTTTAGGGACGTGCTA | -0.954 z-score |
| GACGATTTCAGTTCCGGGACGTGCTAG | 2.09 z-score |
| TCAGTTTCTGGTTTATTACTGTGCTAG | 5.65 z-score |
| TCAGGTCTCGGTATCGGTTAGTGCTAG | 1.48 z-score |
| GACGGTTTCGACCTTCGGGACGTGCTA | 4.28 z-score |
| CACTCTGTCCCTCTGTGACAGTGCTAG | 1.43 z-score |
| TTAGGTTTCGCTATCGGTTAGTGCTAG | 5.81 z-score |
| ATAGGACTGGACTATCGGTTAGTGCTA | -0.0368 z-score |
| TCAAATTACCTTTTCACACTGTGCTAG | 1.24 z-score |
| TTAGGTATCGACCTTCGGTTAGTGCTA | 0.423 z-score |
| CACGGTTTCGGTCTCGGGACGTGCTAG | 6.72 z-score |
| GACGATATCGGGTATGGAGACGTGCTA | 0.089 z-score |
| TTAGGTTTCGGTTCCGGTTAGTGCTAG | 11.3 z-score |
| GAGGGTCTCCTTTTCCTGACGTGCTAG | 0.602 z-score |
| TTAGATTTCGGGACTTGATTAGTGCTA | 0.971 z-score |
| GACGGTTTCATACTGCTGACGTGCTAG | 2.43 z-score |
| CCCTATTTAAGGCATCTGCAGGTGCTA | 0.776 z-score |
| TAAGGTTTCGGTATCGGTTAGTGCTAG | 7 z-score |

Block 4 — method: aptamer microarray, sandwich; form: DNA with 2'F-ANA; sample: in vitro; tested at: 200 nM; with: Cy3 exosite-II aptamer, 400 nM; direction: higher = stronger binding; oligonucleotide: GGTTGGTGTGGTTGG
Target: Prothrombin, mature alpha-thrombin (F2, Homo sapiens, UniProt P00734)
Notes: whole 15-mer aptamer, many near background
| Modification | mean fluorescence intensity |
| --- | --- |
| 2'F-ANA at 3 5 9 11 13 | 84.1 a.u. |
| 2'F-ANA at 5 9 13 | 57 a.u. |
| 2'F-ANA at 2 6 8 10 14 15 | 75.7 a.u. |
| 2'F-ANA at 2 3 4 9 11 12 13 15 | 550 a.u. |
| 2'F-ANA at 2 3 5 6 10 12 15 | 57.2 a.u. |
| 2'F-ANA at 1 2 5 6 7 8 10 11 15 | 58.5 a.u. |
| 2'F-ANA at 1 3 4 9 10 12 13 | 71.7 a.u. |
| 2'F-ANA at 1 2 3 4 5 6 8 9 14 | 46.5 a.u. |
| 2'F-ANA at 5 6 8 9 12 15 | 160 a.u. |
| 2'F-ANA at 2 3 5 6 7 8 9 10 12 15 | 59.8 a.u. |
| 2'F-ANA at 2 3 4 7 8 12 14 15 | 508 a.u. |
| 2'F-ANA at 3 7 9 11 12 13 14 15 | 614 a.u. |
| 2'F-ANA at 1 3 5 7 8 9 11 12 14 | 49.1 a.u. |
| 2'F-ANA at 1 2 4 5 6 7 8 9 10 12 13 15 | 49.1 a.u. |
| 2'F-ANA at 1 2 4 6 8 9 10 11 12 13 14 | 47.2 a.u. |
| 2'F-ANA at 1 3 5 7 9 10 13 14 15 | 75.5 a.u. |
| 2'F-ANA at 1 3 4 5 6 7 13 | 48.3 a.u. |
| 2'F-ANA at 1 5 6 8 9 11 12 14 | 47.5 a.u. |
| 2'F-ANA at 1 4 5 6 11 15 | 50.1 a.u. |
| 2'F-ANA at 1 2 4 6 7 8 9 15 | 122 a.u. |
| 2'F-ANA at 2 4 5 6 10 11 12 13 14 | 47 a.u. |
| 2'F-ANA at 1 2 4 7 12 13 14 15 | 62.4 a.u. |
| 2'F-ANA at 6 7 8 10 11 12 13 15 | 170 a.u. |
| 2'F-ANA at 3 4 7 13 14 | 345 a.u. |
| 2'F-ANA at 3 6 7 8 9 10 12 13 15 | 467 a.u. |

Repeated from above (block 2):
| Molecule | growth enrichment score |
| --- | --- |
| LKGRRLVFDN | 0.624 |
| NSMKELNFSHLPSNSV | -0.146 |
| RRRIKLPESDSSED | 0.353 |
| SMTDFYHSKRRLIFSK | -1.34 |
| KVKRRLDLDIDGLQKE | 0.813 |
| KRRLDLETDHQY | -0.843 |
| TTTTSPRTPPPLTVQD | 0.666 |
| RVSGLLSWTLSRVLWL | -0.143 |
| GFGFLLFICKLTF | -0.74 |
